Assay results collected from several papers.
Numbered parts are unrelated; each lists some results of a single study. Several values in a cell are separate wells, animals, samples, runs or records.
UniProt Q13043, sequence (whole entry, looked up): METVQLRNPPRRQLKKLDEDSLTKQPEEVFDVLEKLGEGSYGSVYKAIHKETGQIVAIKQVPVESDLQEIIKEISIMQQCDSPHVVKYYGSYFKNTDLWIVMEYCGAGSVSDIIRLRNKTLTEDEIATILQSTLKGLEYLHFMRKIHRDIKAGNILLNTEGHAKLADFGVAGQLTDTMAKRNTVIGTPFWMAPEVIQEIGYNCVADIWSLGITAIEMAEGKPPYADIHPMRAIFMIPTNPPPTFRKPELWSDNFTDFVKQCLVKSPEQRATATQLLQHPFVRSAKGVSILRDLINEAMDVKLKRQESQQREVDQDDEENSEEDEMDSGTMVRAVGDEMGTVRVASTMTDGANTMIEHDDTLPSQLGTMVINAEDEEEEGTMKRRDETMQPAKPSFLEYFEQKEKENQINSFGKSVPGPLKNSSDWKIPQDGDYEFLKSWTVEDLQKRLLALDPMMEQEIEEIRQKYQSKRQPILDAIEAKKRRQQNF
UniProt P42336, sequence (whole entry, unmodified, looked up): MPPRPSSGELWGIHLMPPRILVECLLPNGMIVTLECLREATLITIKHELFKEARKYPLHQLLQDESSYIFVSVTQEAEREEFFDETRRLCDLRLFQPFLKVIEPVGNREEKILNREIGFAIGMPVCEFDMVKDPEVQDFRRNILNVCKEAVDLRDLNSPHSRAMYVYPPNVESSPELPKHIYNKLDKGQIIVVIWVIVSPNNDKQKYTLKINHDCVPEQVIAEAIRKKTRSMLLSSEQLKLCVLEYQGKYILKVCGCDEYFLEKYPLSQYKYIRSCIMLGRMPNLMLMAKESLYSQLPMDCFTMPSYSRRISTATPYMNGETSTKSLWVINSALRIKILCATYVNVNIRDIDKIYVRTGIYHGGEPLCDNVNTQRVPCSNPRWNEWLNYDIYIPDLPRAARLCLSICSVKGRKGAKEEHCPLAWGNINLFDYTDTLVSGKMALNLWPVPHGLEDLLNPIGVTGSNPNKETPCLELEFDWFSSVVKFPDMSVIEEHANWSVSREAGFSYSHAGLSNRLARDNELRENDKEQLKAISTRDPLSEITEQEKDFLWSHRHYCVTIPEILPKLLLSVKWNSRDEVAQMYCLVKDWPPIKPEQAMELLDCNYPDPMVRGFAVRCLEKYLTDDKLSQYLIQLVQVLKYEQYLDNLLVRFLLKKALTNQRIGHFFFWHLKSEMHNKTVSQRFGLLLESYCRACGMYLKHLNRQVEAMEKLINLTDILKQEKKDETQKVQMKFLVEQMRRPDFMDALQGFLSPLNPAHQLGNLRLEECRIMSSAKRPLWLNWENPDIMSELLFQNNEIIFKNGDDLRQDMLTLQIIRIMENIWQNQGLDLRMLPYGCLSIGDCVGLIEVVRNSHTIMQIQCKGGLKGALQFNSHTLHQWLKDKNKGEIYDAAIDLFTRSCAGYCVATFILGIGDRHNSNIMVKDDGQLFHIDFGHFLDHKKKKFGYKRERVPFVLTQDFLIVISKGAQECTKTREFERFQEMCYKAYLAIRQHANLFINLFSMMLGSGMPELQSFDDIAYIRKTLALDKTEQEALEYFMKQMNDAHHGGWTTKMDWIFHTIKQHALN
UniProt O75385, sequence (whole entry, looked up): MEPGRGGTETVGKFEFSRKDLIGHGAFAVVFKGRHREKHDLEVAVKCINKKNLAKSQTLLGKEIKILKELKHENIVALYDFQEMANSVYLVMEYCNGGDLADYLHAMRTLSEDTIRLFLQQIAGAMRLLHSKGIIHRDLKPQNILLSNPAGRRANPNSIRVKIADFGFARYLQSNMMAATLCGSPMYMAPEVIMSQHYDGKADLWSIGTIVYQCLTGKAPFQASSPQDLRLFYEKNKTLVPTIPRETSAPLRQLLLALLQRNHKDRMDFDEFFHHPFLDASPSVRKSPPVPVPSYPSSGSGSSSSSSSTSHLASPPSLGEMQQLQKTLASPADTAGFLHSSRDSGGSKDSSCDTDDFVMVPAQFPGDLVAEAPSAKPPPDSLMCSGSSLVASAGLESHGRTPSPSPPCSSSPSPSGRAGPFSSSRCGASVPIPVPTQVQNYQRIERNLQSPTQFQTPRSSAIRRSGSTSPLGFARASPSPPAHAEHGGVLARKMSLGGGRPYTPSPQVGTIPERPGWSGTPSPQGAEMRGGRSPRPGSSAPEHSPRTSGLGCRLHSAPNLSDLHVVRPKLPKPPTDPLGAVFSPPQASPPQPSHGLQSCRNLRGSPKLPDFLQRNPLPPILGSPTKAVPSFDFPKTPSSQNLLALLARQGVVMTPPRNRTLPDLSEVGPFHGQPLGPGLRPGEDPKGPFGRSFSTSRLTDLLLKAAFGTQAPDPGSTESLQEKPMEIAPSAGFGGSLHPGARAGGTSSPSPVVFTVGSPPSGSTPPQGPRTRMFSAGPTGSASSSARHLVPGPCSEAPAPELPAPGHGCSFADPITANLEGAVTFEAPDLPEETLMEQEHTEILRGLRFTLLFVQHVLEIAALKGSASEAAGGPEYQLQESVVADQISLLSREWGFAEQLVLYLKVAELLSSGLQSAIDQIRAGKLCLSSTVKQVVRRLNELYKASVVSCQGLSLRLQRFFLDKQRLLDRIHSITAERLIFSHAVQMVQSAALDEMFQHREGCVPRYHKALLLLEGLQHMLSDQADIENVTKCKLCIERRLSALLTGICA
UniProt Q8TDX7, sequence (whole entry, looked up): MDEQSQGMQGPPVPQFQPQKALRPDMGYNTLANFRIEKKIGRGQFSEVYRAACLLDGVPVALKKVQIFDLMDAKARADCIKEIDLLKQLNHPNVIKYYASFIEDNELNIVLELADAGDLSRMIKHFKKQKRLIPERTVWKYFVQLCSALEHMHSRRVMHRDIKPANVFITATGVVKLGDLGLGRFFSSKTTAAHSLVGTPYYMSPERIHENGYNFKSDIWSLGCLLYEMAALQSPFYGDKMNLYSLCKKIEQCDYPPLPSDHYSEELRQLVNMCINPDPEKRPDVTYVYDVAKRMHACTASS
UniProt Q14012, sequence (whole entry, looked up): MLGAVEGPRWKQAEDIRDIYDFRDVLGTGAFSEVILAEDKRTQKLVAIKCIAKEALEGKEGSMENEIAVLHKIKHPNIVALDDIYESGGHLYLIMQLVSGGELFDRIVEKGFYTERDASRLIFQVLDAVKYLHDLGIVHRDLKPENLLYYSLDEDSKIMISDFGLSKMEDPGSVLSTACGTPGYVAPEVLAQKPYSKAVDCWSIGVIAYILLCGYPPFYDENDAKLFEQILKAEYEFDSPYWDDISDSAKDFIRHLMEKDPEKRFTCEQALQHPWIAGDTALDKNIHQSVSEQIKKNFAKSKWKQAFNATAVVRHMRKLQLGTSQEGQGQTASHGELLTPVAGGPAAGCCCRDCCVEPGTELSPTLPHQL

Set 1
Target: Serine/threonine-protein kinase Sgk3 (SGK3, Homo sapiens, UniProt Q96BR1)
UniProt Q96BR1, sequence (whole entry, looked up): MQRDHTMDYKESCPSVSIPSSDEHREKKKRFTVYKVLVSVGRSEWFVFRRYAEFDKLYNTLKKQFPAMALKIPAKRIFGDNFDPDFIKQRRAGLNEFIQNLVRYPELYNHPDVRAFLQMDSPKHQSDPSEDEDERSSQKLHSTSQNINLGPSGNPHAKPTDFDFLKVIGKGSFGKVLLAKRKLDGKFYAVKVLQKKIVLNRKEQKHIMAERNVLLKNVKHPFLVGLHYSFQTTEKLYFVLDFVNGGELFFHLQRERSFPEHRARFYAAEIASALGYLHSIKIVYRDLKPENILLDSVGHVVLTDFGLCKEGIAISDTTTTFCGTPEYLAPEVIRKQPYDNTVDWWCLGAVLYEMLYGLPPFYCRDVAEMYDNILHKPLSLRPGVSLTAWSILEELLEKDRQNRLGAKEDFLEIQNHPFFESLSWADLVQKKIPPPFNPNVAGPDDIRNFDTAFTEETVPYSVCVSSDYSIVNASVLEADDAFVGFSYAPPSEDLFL
Effect on: enzyme activity
Action: inhibitor
Concentration: 0.5 µM
Reference: control
Endpoint: remaining activity
O=C1Nc2ccccc2/C1=C\c1c(Cl)[nH]c2ccccc12: 102%
O=C1NC(=O)c2c1c1c3ccccc3[nH]c1c1[nH]c3cc(Br)ccc3c21: 97.2%
c1ccc2c(-c3ccncc3)c[nH]c2c1: 92.8%
CN1CCN(c2ccc3nc(-c4c(N)c5c(F)cccc5[nH]c4=O)[nH]c3c2)CC1: 98.4%
COc1ccc2c(c1)c(C1=C(c3c[nH]c4ccccc34)C(=O)NC1=O)cn2CCCN(C)C: 101%
Cc1cc(Nc2cc(N3CCN(C)CC3)nc(Sc3ccc(NC(=O)C4CC4)cc3)n2)[nH]n1: 101%
O=C(c1cc2cc(O)ccc2[nH]1)c1cc2cc(O)ccc2[nH]1: 113%
CCCCc1c(-c2ccc(OC)cc2)[nH]c2nccnc12: 98.6%
Cc1ccc(S(=O)(=O)/C=C/C#N)cc1: 108%
c1ccc(-c2n[nH]c3c2oc2ccccc23)cc1: 111%
O=C1NC(=O)c2c1c1c3ccccc3[nH]c1n1cncc21: 111%
CN(C)S(=O)(=O)c1ccc2c(c1)/C(=C/c1cc3c([nH]1)CCCC3)C(=O)N2: 98.1%
O=C1Nc2ccc(Br)cc2/C1=C/c1cc2c([nH]1)CCCC2: 97.6%
CCCNC(=O)Nc1ccc(Oc2ncnc3cc(OC)c(OC)cc23)cc1Cl: 95.5%
N#Cc1cnc2cnc(NCc3cccnc3)cc2c1Nc1ccc(F)c(Cl)c1: 91.5%
O=C1Cc2c([nH]c3ccc(Br)cc23)-c2ccccc2N1: 107%
O=Nc1c(-c2c(O)[nH]c3cc(Br)ccc23)[nH]c2ccccc12: 97.2%
O=c1cc(N2CCOCC2)oc2c(-c3ccccc3)cccc12: 109%
COc1ccc(COc2ccc(Cc3cnc(N)nc3N)cc2OC)cc1: 105%
COc1cccc(-c2cc(=O)c3ccccc3o2)c1N: 101%

Set 2
Cell line: mouse MPNST tumor cells
Method: high-content immunofluorescence imaging
Refers to: nuclear SOX9
Concentration: 10 µM
Time: 12 h
Notes: mean of 2 replicates
Reference: DMSO control
Reading: higher = more nuclear SOX9
Endpoint: nuclear SOX9 intensity
CCN(CC)C(=O)C1(c2ccccc2)CC1CN (centres unmarked): 75.4 % of DMSO
Cc1ccc(-c2csc3ncnc(SCCC(=O)O)c23)cc1: 100 % of DMSO
N#CC(=Cc1cn(-c2ccccc2)c2ccccc12)C(=O)O: 83.5 % of DMSO
COc1ccc(C(=O)Nc2sc3c(c2C(N)=O)CCCC3)cc1OC: 101 % of DMSO
Cc1cc(-n2c(=O)[nH]c(=O)n(C)c2=O)ccc1Oc1ccc(SC(F)(F)F)cc1: 97.9 % of DMSO
CC(C)c1ccc(NC(=O)Cn2cnc3c2c(=O)n(C)c(=O)n3C)cc1: 102 % of DMSO
N[C@@H](Cc1ccc(O)c(O)c1)C(=O)O: 96.7 % of DMSO
Cc1cc(=O)n(-c2ccccc2)n1C: 92.5 % of DMSO
NC(=O)c1ncn([C@@H]2O[C@H](CO)[C@@H](O)[C@H]2O)n1: 103 % of DMSO and 84.7 % of DMSO and 95.1 % of DMSO
CC(NC(=O)C(OC(=O)C(C)NC(=O)OC(C)(C)C)C(C)C)C(=O)OC(C(=O)O)C(C)C (centres unmarked): 100 % of DMSO
Nc1nc(CC(=O)Nc2ccc(CCNC[C@H](O)c3ccccc3)cc2)cs1: 102 % of DMSO
O=C(NCCS(=O)(=O)c1ccc(C(F)(F)F)cn1)c1ccc(Cl)cc1: 112 % of DMSO
Cc1nc(Nc2n[nH]c3c2CN(C(=O)N[C@H](CN(C)C)c2ccccc2)C3(C)C)c2sccc2n1: 118 % of DMSO
COc1ccc(NS(=O)(=O)c2sc3ccc(Cl)cc3c2C)cc1N1CCNCC1: 169 % of DMSO
CCCN(CC1CC1)c1nc(C)nc(Nc2c(Cl)cc(Cl)cc2Cl)c1Cl: 119 % of DMSO
CCN1CCC[C@H]1CNC(=O)c1c(OC)ccc(Br)c1OC: 95.8 % of DMSO
CCCN1CCC=C(c2cc(-c3ccc(C)cc3)no2)C1: 99.7 % of DMSO
CCCNC(C)C(=O)Nc1ccccc1C (centres unmarked): 105 % of DMSO
CCN(CC)CCN[C@@H](C(=O)OCCC(C)C)c1ccccc1: 110 % of DMSO
CC(C)(CN)c1nc(-c2ccc(Cl)c(O)c2)c(-c2ccncc2)[nH]1: 105 % of DMSO
Cc1cc(N)c2ccccc2[n+]1CCCCCCCCCC[n+]1c(C)cc(N)c2ccccc21: 70.6 % of DMSO

Set 3
Target: Bromodomain-containing protein 4, BD1 (BRD4, Homo sapiens, UniProt O60885)
Effect on: acetyl-histone H4 peptide binding
Method: AlphaScreen displacement
Concentration: 50 µM
Endpoint: inhibition
COC(=O)c1ccccc1NC(=O)CSc1nnc(-c2ccccc2)n1-n1cccc1: 8.55%
Cc1ccnc(NC(=O)c2n[nH]c3ccccc23)c1: 12.8%
Nc1ncnc2c1c(I)cn2[C@@H]1O[C@H](CO)[C@@H](O)[C@H]1O: 14.7%
O=C1NC(=O)C(=Cc2ccc3nccnc3c2)S1: 27%
O=C(O)CSc1nnc(-c2ccc(Cl)cc2)n1-c1ccccc1: 8.55%
COc1ccccc1-c1cnc2[nH]c(=O)n(C3CCCC3)c2n1: 12.2%
CC(C)n1cnc2c(Nc3ccc(-c4ccccn4)cc3)nc(N[C@H](C)CO)nc21: 56%
c1ccc(-c2cnc(Nc3ccc(OCCN4CCCC4)cc3)s2)cc1: 68.2%
CC1CCc2nc(C(C#N)=Cc3ccncc3)sc2C1 (centres unmarked): 9.1%
Cc1nc(Nc2n[nH]c3c2CN(C(=O)N[C@H](CN(C)C)c2ccccc2)C3(C)C)c2sccc2n1: 13.2%
O=C1Nc2ccccc2C1=Cc1ccc[nH]1: 38.9%
CCn1c(-c2nonc2N)nc2cnc(Oc3cccc(NC(=O)c4ccc(OCCN5CCOCC5)cc4)c3)cc21: 25.3%
c1ccc(-c2n[nH]c3c2oc2ccccc23)cc1: 17.9%
O=C(Nc1cc(Cl)ccc1C(=O)O)c1ccc2c(c1)C(=O)N(Cc1cccnc1)C2=O: 23.5%
CNC(=O)c1c(F)cccc1Nc1nc(Nc2cc3c(cc2OC)CCN3C(=O)CN(C)C)nc2[nH]ccc12: 38.1%
COc1ccc(Nc2nc(N)nc3[nH]cnc23)cc1: 22.7%
COc1ccc(-c2[nH]c3ncccc3c2CN2CCN(S(=O)(=O)N(C)C)CC2)cc1: 5.25%
CC=CCn1cnc2c1c(=O)n(C)c(=O)n2C: -8.35%
O=C(NCC(F)(F)F)c1n[nH]c2ccccc12: 6.15%
Fc1ccc(Nc2ncc3c(n2)CCNC3)cc1: 13.8%
O=C(Nc1cccc(Nc2ncc(Br)c(NCCc3cnc[nH]3)n2)c1)N1CCCC1: 30.9%
COc1ccc(-c2nnc3ccc(SCC(=O)Nc4cccc(Cl)c4)nn23)cc1OC: 19.5%

Set 4
Structure (SMILES): CCC(=O)N[C@@H]1CC[C@H](C(=O)N(C)c2ccc(-c3nc4ccccc4o3)cc2)C1
Concentration: 1 µM
Endpoint: remaining binding
Serine/threonine-protein kinase 4 (STK4, Homo sapiens, UniProt Q13043); cell-free assay, competition with immobilised ligand: 90%
Dual specificity tyrosine-phosphorylation-regulated kinase 1A (DYRK1A, Homo sapiens, UniProt Q13627); cell-free assay, competition with immobilised ligand: 98%
Mitogen-activated protein kinase kinase kinase 14 (MAP3K14, Homo sapiens, UniProt Q99558); cell-free assay, competition with immobilised ligand: 100%
Receptor-type tyrosine-protein kinase FLT3 (FLT3, Homo sapiens, UniProt P36888, F691L/ITD); cell-free assay, competition with immobilised ligand: 76%
Calcium/calmodulin-dependent protein kinase type 1 (CAMK1, Homo sapiens, UniProt Q14012); cell-free assay, competition with immobilised ligand: 100%
Serine/threonine-protein kinase TNNI3K (TNNI3K, Homo sapiens, UniProt Q59H18); cell-free assay, competition with immobilised ligand: 99%
Serine/threonine-protein kinase DCLK1 (DCLK1, Homo sapiens, UniProt O15075); cell-free assay, competition with immobilised ligand: 88%
AP2-associated protein kinase 1 (AAK1, Homo sapiens, UniProt Q2M2I8); binding: 100%
Leucine-rich repeat serine/threonine-protein kinase 2 (LRRK2, Homo sapiens, UniProt Q5S007); cell-free assay, competition with immobilised ligand: 100%
Serine/threonine-protein kinase Nek7 (NEK7, Homo sapiens, UniProt Q8TDX7); cell-free assay, competition with immobilised ligand: 100%
Mitogen-activated protein kinase kinase kinase kinase 4 (MAP4K4, Homo sapiens, UniProt O95819); cell-free assay, competition with immobilised ligand: 100%
Receptor-type tyrosine-protein kinase FLT3, autoinhibited (FLT3, Homo sapiens, UniProt P36888); cell-free assay, competition with immobilised ligand: 84%
Serine/threonine-protein kinase ULK1 (ULK1, Homo sapiens, UniProt O75385); cell-free assay, competition with immobilised ligand: 100%
Mitogen-activated protein kinase 6 (MAPK6, Homo sapiens, UniProt Q16659); cell-free assay, competition with immobilised ligand: 100%
Phosphatidylinositol 4,5-bisphosphate 3-kinase catalytic subunit alpha isoform (PIK3CA, Homo sapiens, UniProt P42336, C420R); cell-free assay, competition with immobilised ligand: 70%
Ephrin type-B receptor 4 (EPHB4, Homo sapiens, UniProt P54760); cell-free assay, competition with immobilised ligand: 100%
Leukocyte tyrosine kinase receptor (LTK, Homo sapiens, UniProt P29376); cell-free assay, competition with immobilised ligand: 93%
